Published values pooled from the literature.
Several values in a cell are separate wells, animals, samples, runs or records. ± marks the error that the study gave.

The LDH release of `CCCCCCCC[N+](CCCCCCCC)(CCCCCCCC)CCCCCCCC.[Br-]` is reported as 259 mU/mL and 235 mU/mL (hTERT-RPTEC-OAT1; concentration not given, Transwell, apical-to-basolateral addition).
`Cc1nc(C(=O)NCC(=O)O)c(O)c2ccc(Oc3ccccc3)cc12` gave a Papp of 160 nm/s (MDCK low-efflux cells; passive permeability; apical to basolateral).
`O=C(Nc1ccc([N+](=O)[O-])cc1Cl)c1cc(Cl)ccc1O` gave a CC50 of 19.5 µM (primary human fibroblasts uninfected; live/dead staining; 48 h).
`O=C(Nc1ccc(F)c(Br)c1)c1ccc2c(c1)C(=O)NC2=O`: viability “not toxic” (BV-2; MTT; 1 to 20 µM, 24 h).
`CC1(C)CCC(c2ccc(Cl)cc2)=C(CN2CCN(c3ccc(C(=O)NS(=O)(=O)c4ccc(N[C@H](CCN5CCOCC5)CSc5ccccc5)c(S(=O)(=O)C(F)(F)F)c4)cc3)CC2)C1`: “drug secreted with TRL” 15.6 ± 6.7% (C2BBe1 monolayers; 50 % saturated solubility, 4 h, basolateral fractions 1-10, together with: oleic acid/monoolein micelles).
The CC50 of `O=C(CCCCCCC(=O)Nc1ccccc1)NO` is reported as 6.45 µM (NDHF fibroblasts; MTS; 120 h).
`O[C@H]1[C@H](OCc2cn(Cc3ccc(F)cc3)nn2)O[C@H]2[C@@H]1OC[C@H]2O`: viability “not toxic” (SU-DHL10; cytotoxicity, CellTiter-Glo; up to 30 µM, 72 h).
`Cc1nc(NCCCCNc2ccnc3cc(Cl)ccc23)nc(-c2ccccc2[N+](=O)[O-])c1C(=O)OC(C)C` — result for “minimum cytotoxic concentration”: 20 µM (HEL; cell morphology).
`Nc1nc2c(ncn2COCCO)c(=O)[nH]1`: “minimum cytotoxic concentration” greater than 250 µM (HEL).
`CC(=O)Nc1cccc(-n2c(=O)n(C3CC3)c(=O)c3c(Nc4ccc(I)cc4F)n(C)c(=O)c(C)c32)c1` has a viability fraction of 0.586 (LoVo (KRAS G13D); resazurin; 6.25 nM, 72 h; reference: DMSO).
`Nc1ccn(C[C@@H](CO)OCP(=O)(O)O)c(=O)n1.O.O`: “minimum cytotoxic concentration” 317 µM (HEL; cell morphology).
With `CC(=Nc1ccc(N=Cc2cnccn2)cc1)N(C)C` the viability was 52.7 ± 2.1% (FHs 74 Int; MTT; 600 µM, 48 h).
`C[C@H](NC(=O)[C@]1(Cc2ccccc2)CCN1S(=O)(=O)c1ccc2ccccc2c1)C(N)=O` — result for “minimum cytotoxic concentration”: greater than 100 µM (HEL; cell morphology).
For `Cc1cccc(C)c1N(CC(=O)Nc1ccc(-c2ncon2)cc1)C(=O)C1CCS(=O)(=O)CC1`, the CC50 was greater than 10 µM (primary human fibroblasts uninfected; live/dead staining; 48 h, capped at 10.00 µM).
For `COc1ccccc1OCC(O)CN1CCN(CC(=O)Nc2c(C)cccc2C)CC1` (stereo not shown), “lowest concentration prolonging” read 5 µM (hiPSC-derived cardiomyocytes; beat period; 30 min, decoupled state).
The IC50 of `C=C(C)[C@@H]1CC[C@]2(C)CC[C@]3(C)[C@H](CC[C@@H]4[C@@]5(C)CC[C@H](O)C(C)(C)[C@@H]5CC[C@]43C)[C@@H]12` is reported as greater than 100 mg/L (RPE cells; cytotoxicity; 48 h).
For `Cc1cn([C@H]2C[C@H](N=[N+]=[N-])[C@@H](CO)O2)c(=O)[nH]c1=O`, the proliferation inhibition was less than 5% (Cells, MOLT-4 and HUVEC; CCK-8; RPMI-1640, 10% FBS; 50 µM, up to 36 h).
With `Cc1cc(C)c(CNC(=O)c2cc(Cl)c3c(c2C)O[C@@](C)([C@H]2CC[C@H](N(C)C)CC2)O3)c(=O)[nH]1` the efflux ratio was 0.97 (Caco-2; 30 µM, together with: verapamil 100 µM).
With `COc1ccc2ccc(C)nc2c1O` the Papp was 34 nm/s (RRCK low-efflux MDCK-II cells; 1.5 h, 37 °C, apical to basal).
`O=C1c2ccccc2C(=O)c2c(NCCc3ccc(O)cc3)ccc(NCCc3ccc(O)cc3)c21` has a CC50 of 2.95 µM (THP-1 PMA-differentiated macrophages; CellTiter-Glo; 72 h, host cell cytotoxicity).
`O=C(O)c1c(O)c(-c2ccccc2)nc2ccccc12` has a Papp of 84 nm/s (MDCK low-efflux cells; passive permeability; apical to basolateral).
The cytotoxicity of `Cc1cc(C(=O)NC(C)(C)COc2cccc3c2C(N)=NS(=O)(=O)N3)cc(C)n1` is reported as 22% (human peripheral blood lymphocytes; CBPI, preliminary test; 200 µg/mL, 4 h, together with: rat liver S9; reference: vehicle control).

Repeated from above:
With `CC(=Nc1ccc(N=Cc2cnccn2)cc1)N(C)C` the viability was 52.7 ± 2.1% (FHs 74 Int; MTT; 600 µM, 48 h).
`Cc1nc(C(=O)NCC(=O)O)c(O)c2ccc(Oc3ccccc3)cc12` gave a Papp of 160 nm/s (MDCK low-efflux cells; passive permeability; apical to basolateral).
